Experimental data pooled from the literature.
Each line is one published result; not all experiments were run side by side. Values joined by “and” are separate records of one study, mostly repeats; a detail may differ. Numbers after ± are the reported error.

`Fc1ccc(Nc2nc(NC3CCCCC3)c3ccccc3n2)cc1F` has a pIC50 of 5.8 (β2AR/β1AR ECL2/3 chimera; β-arrestin2 recruitment, antagonist, BRET; with: isoprenaline 1 µM).
The sphingomyelin level of `O=C(CCCCCOc1ccc2ccccc2c1)N[C@@H](CO)C[C@@H](O)c1ccc(-c2ccccc2)cc1` is reported as 619000 pmol and 667000 pmol and 673000 pmol (CERT; HPLC-MS/MS, measured: SM C16; HeLa; 1 µM, 24 h).
For `Nc1ncc(-c2cc(-c3cnn(CC(F)(F)F)c3)ncc2F)nc1C(=O)NC1CNCC(F)C1` (stereo not shown), the remaining binding was 73% (ACVR1; KINOMEscan; 1 µM; relative to: DMSO control).
For `C[n+]1cc(/C=N/NC(=O)c2cncc(C(=O)N/N=C/c3cc4ccccc4[n+](C)c3)n2)cc2ccccc21`, the ΔTm was 4.9 °C (MYC parallel G4 DNA; FRET melting; 1 µM, DNA 0.2 µM).
For `CCCCCCCCCCCC(=O)N[C@@H](CO)C[C@@H](O)c1cccc(CCCCCC)c1`, the sphingomyelin level was 691000 pmol/sample and 698000 pmol/sample and 837000 pmol/sample (CERT; HPLC-MS/MS, measured: total sphingomyelin; HeLa; 1 µM, 24 h).
`c1ccc(-c2n[nH]cc2-c2ccnc3ccccc23)nc1`: “log2 fold change” -0.04 (KIN28 (Candida albicans); kinase binding, MIB/MS competition; Candida albicans lysate; 10 µM; relative to: DMSO).
With `Cc1cn(CC(=O)N(CC(=O)N[C@H]2CCC[C@@H]2N(CC(=O)N[C@H]2COC[C@@H]2N(CC(=O)N[C@H]2COC[C@@H]2N(CC(=O)N[C@H]2COC[C@@H]2N(CC(=O)NCCOCCOCC(N)=O)C(=O)Cn2cnc3c(N)ncnc32)C(=O)Cn2cc(C)c(=O)[nH]c2=O)C(=O)Cn2cnc3c(N)ncnc32)C(=O)Cn2cnc3c(=O)[nH]c(N)nc32)[C@H]2CCC[C@@H]2NC(=O)CN(C(=O)Cn2cnc3c(=O)[nH]c(N)nc32)[C@H]2CCC[C@@H]2NC(=O)CN(C(=O)Cn2cc(C)c(=O)[nH]c2=O)[C@H]2COC[C@@H]2NC(=O)CN(C(=O)Cn2cnc3c(N)ncnc32)[C@H]2COC[C@@H]2NC(=O)CN(C(=O)Cn2cnc3c(=O)[nH]c(N)nc32)[C@H]2COC[C@@H]2N)c(=O)[nH]c1=O` the ΔTm was -13.8 °C (mismatched RNA TG; duplex formation, UV melting; relative to: complementary RNA).
`C[n+]1cc(/C=N/NC(=O)c2cccc(C(=O)N/N=C/c3cc4ccccc4[n+](C)c3)n2)cc2ccccc21` gave a ΔTm of 7 ± 0.7 °C (MYC parallel G4 DNA; FRET melting; 1 µM, DNA 0.2 µM).
For `C=CC(=O)Nc1cccc(Cn2ncc3cnc(Nc4cnn(CCOC)c4)nc32)c1`, “percent of control” read 100% (MST1R human; binding, KINOMEscan; 100 nM; lower = stronger binding).
`C[n+]1ccc(/C=N/NC(=O)C(=O)N/N=C/c2cc[n+](C)cc2)cc1` has a ΔTm of 0.3 ± 0.1 °C (hp2 hairpin duplex DNA; FRET melting; 1 µM).
`C#CCN1CCN(c2nc(N3CCN(c4ccc(Cc5cc(CNC(=O)[C@@H]6C[C@@H](O)CN6C(=O)[C@@H](NC(=O)C6(F)CC6)C(C)(C)C)c(O)cc5-c5scnc5C)cc4)CC3)nc(N3CCN(C(=O)C4CC4)C3)n2)CC1=O` gave a cooperativity alpha of 14 (VHL-elongin C-elongin B and BRD9; SPR; immobilized VHL-elongin C-elongin B; relative to: binary KD over ternary KD).
With `CCCCCC(O)/C=C/C=O` (stereo not shown) the IC50 was 85 µM and 65 µM and 78 µM and 86 µM and 67 µM and 71 µM and 116 µM (proteome cysteines; IA-probe labelling, competitive isoTOP-ABPP; MDA-MB-231 proteome).
`O=C(N/N=C/c1cc[n+](Cc2ccccc2)c2ccccc12)N/N=C/c1cc[n+](Cc2ccccc2)c2ccccc12` has a ΔTm of 4.4 ± 0.2 °C (MYC parallel G4 DNA; FRET melting; 1 µM, DNA 0.2 µM, with: duplex DNA competitor 10 µM).
The sphingomyelin level of `CCCCCCc1cccc(C(O)CC(CO)NC(=O)CCCCCCCCCCNC(C)=O)c1` (stereo not shown) is reported as 98600 pmol/sample and 114000 pmol/sample and 74800 pmol/sample (CERT; HPLC-MS/MS, measured: SM 24:1; HeLa; 1 µM, 24 h).
The IC50 of `C/C=C(/C)C(=O)OC[C@H]1[C@@H](Cc2ccc(C(C)(C)C)cc2)CO[C@@H]1c1ccc(F)cc1` is reported as at least 20 µM (NF-κB; reporter gene; HEK293/NF-κB-luc; 4 h, with: TNFα 2 ng/mL).
With `C[n+]1ccc(/C=N/NC(=O)c2cccc(C(=O)N/N=C/c3cc[n+](C)cc3)n2)cc1` the ΔTm was 0.6 ± 0.4 °C (MYC parallel G4 DNA; FRET melting; 1 µM, DNA 0.2 µM).
With `CCN1CCN(Cc2ccc(NC(=O)c3ccc(C)c(NC(=O)c4cncc(-c5cccs5)c4)c3)cc2C(F)(F)F)CC1` the binding was 2.2% (FLT3 ITD; KinomeScan; 1 µM; relative to: DMSO control).
The cooperativity alpha of `Cc1ncsc1-c1ccc(CNC(=O)[C@@H]2C[C@@H](O)CN2C(=O)[C@@H](NC(=O)C2(F)CC2)C(C)(C)C)c(OCCC2CCN(c3nc(N(C)CCNC(=O)C(C)C)nc(N4CCn5nnc(CO)c5C4)n3)CC2)c1` is reported as 9.8 (VHL-elongin C-elongin B and BRD9; SPR; immobilized VHL-elongin C-elongin B; relative to: binary KD over ternary KD).
The ΔTm of `C[n+]1cccc2cc(/C=N/NC(=O)N/N=C/c3ccc4c(ccc[n+]4C)c3)ccc21` is reported as 2.2 ± 0.7 °C (hp2 hairpin duplex DNA; FRET melting; 1 µM).
`C=CC(=O)N1[C@@H](c2ccc3c(c2)OCO3)c2[nH]c3ccccc3c2C[C@H]1C(=O)N1CCN(C)CC1` gave a relative co-enrichment of 114% (human cyclin E1 N112C-3xFLAG:CDK2; co-IP with TMT proteomics, measured: NUP98; concentration not given, P52948; relative to: wild type DMSO).
`O=C(NCc1ccc2c(c1)CN(C(=O)c1cc(-c3ccccc3)no1)C2)C1C=CC=CC=C1` has an IC50 of 1.07 ± 0.07 µM (FSP1 F15A mutant; resazurin reduction, inhibitor; pH 7.2, with: 50 µM resazurin, NADH).
For `Cc1[nH]nc2c1N=C(c1ccccc1Cl)c1cnc(N3CCOCC3)cc1N2`, the inhibition was -9% (P2X receptor, rabbit; radioligand binding; 10 µM).
With `CC(=O)NCC1CCCCN1c1nc(N(C)CCc2ncc(C)s2)nc(N2CC3C(CCOc4cc(-c5scnc5C)ccc4CNC(=O)[C@@H]4C[C@@H](O)CN4C(=O)[C@@H](NC(=O)C4(F)CC4)C(C)(C)C)C3C2)n1` (stereo partly shown) the cooperativity alpha was 220 (VHL-elongin C-elongin B and BRD9; SPR; immobilized VHL-elongin C-elongin B; relative to: binary KD over ternary KD).
With `C[n+]1ccc(/C=N/NC(=O)c2cc(C(=O)N/N=C/c3cc[n+](C)c4ccccc34)ncn2)c2ccccc21` the ΔTm was 3.1 ± 0.2 °C (MYC parallel G4 DNA; FRET melting; 1 µM, DNA 0.2 µM, with: duplex DNA competitor 10 µM).
The melting temperature of `CC(=O)NCCN(CC(=O)NCCN(CC(=O)NCCN(CC(=O)NCCC(N)=O)C(=O)C[C@@H](N)Cc1ccccc1)C(=O)C[C@@H](N)CCCNC(=N)N)C(=O)C[C@@H](N)CCCNC(=N)N` is reported as 64.3 ± 0.1 °C (HIV-1 TAR RNA; RNA thermal stability, UV melting; 5 µM, pH 7.5, with: 1 µM TAR RNA).
`O=C(N/N=C/c1cc[n+](CC2CC2)c2ccccc12)c1cc(C(=O)N/N=C/c2cc[n+](CC3CC3)c3ccccc23)ncn1` has a ΔTm of 1.2 ± 0.8 °C (hp2 hairpin duplex DNA; FRET melting; 1 µM).
With `O=C(Nc1ccccc1)c1ccc(Nc2nnc(-c3ccc(O)cc3)c3ccccc23)cc1` the licking time was 0 s (TRPV1; nocifensive response; mouse; intraplantar, 30 µg).
The Stern-Volmer constant of `CNC(NN=Cc1ccc([N+](=O)[O-])o1)=[S+][Au-][Cl]` is reported as 18000 M⁻¹ (calf thymus DNA; ethidium bromide displacement, fluorescence quenching; up to 50 µM).

A few entries again:
With `CCN1CCN(Cc2ccc(NC(=O)c3ccc(C)c(NC(=O)c4cncc(-c5cccs5)c4)c3)cc2C(F)(F)F)CC1` the binding was 2.2% (FLT3 ITD; KinomeScan; 1 µM; relative to: DMSO control).
The cooperativity alpha of `Cc1ncsc1-c1ccc(CNC(=O)[C@@H]2C[C@@H](O)CN2C(=O)[C@@H](NC(=O)C2(F)CC2)C(C)(C)C)c(OCCC2CCN(c3nc(N(C)CCNC(=O)C(C)C)nc(N4CCn5nnc(CO)c5C4)n3)CC2)c1` is reported as 9.8 (VHL-elongin C-elongin B and BRD9; SPR; immobilized VHL-elongin C-elongin B; relative to: binary KD over ternary KD).
The ΔTm of `C[n+]1cccc2cc(/C=N/NC(=O)N/N=C/c3ccc4c(ccc[n+]4C)c3)ccc21` is reported as 2.2 ± 0.7 °C (hp2 hairpin duplex DNA; FRET melting; 1 µM).
`C=CC(=O)N1[C@@H](c2ccc3c(c2)OCO3)c2[nH]c3ccccc3c2C[C@H]1C(=O)N1CCN(C)CC1` gave a relative co-enrichment of 114% (human cyclin E1 N112C-3xFLAG:CDK2; co-IP with TMT proteomics, measured: NUP98; concentration not given, P52948; relative to: wild type DMSO).
